Published values pooled from the literature.
Lines come from different studies, so protocols differ. Several values in a cell are separate wells, animals, samples, runs or records. Numbers after ± are the reported error.
Target: Cytochrome P450 2C19 (CYP2C19, Homo sapiens, UniProt P33261)
UniProt P33261, sequence (whole entry, looked up): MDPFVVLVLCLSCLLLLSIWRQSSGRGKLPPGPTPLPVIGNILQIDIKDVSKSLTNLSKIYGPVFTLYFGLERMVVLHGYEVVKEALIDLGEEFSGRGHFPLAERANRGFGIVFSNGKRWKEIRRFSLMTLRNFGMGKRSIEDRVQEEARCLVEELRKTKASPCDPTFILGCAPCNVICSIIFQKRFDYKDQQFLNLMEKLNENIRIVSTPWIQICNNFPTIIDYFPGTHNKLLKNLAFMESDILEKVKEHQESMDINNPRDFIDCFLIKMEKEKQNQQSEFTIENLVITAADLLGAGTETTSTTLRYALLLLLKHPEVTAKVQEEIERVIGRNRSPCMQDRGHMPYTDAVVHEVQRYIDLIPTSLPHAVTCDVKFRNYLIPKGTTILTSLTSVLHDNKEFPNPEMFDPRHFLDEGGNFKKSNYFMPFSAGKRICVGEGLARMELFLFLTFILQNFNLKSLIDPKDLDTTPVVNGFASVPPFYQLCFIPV

SMILES | assay | test system | setting | IC50
CC(C)=CCc1c(O)cc(O)c2c1O[C@H](c1ccc(O)cc1)CC2=O | inhibitor | – | pH 7.4 | 0.4 ± 0.1 µM
CCOc1cc(-c2nncn2C)ccc1Nc1ncc2cc(C)nc(NCC(C)(C)C)c2n1 | enzyme activity, inhibitor | – | – | 10 to 50 µM
Cc1noc(C)c1-c1ccc2nc(-c3cnn(CC(C)(C)O)c3)nc(N3CCOC[C@@H]3c3ccccc3)c2c1 | – | – | – | 4.9 µM
NC/C(=C\F)COc1cccc(Cn2c(=S)[nH]c(=O)c3[nH]cnc32)c1 | enzyme activity, inhibitor | – | CYP2C19 screen | > 10 µM
COc1cc(O)c(CC=C(C)C)c2c1C(=O)CC(c1ccc(O)cc1)O2 (stereo not shown) | inhibitor | human liver microsomes | pH 7.4, with: (S)-mephenytoin | 0.5 ± 0.1 µM
N#Cc1ccc([C@H]2CCc3cncn32)c(F)c1 | inhibitor, item: 4'-hydroxylation | pooled human liver microsomes | with: S-mephenytoin 15 µM | < 10 µM and 4 µM
Cc1nc(-c2cnc(NC(C)C)n(C)c2=O)ccc1Oc1ccnc(-c2cnn(C)c2)c1 | time-dependent inhibition, inhibitor | – | 30 min preincubation without NADPH | > 100 µM
O=C(NCCN1CCCC1)c1cc(-c2ccc(CN3CCOCC3)cc2)nc2ccc(F)cc12 | inhibitor | pooled human liver microsomes | with: S-mephenytoin | > 100 µM
CCOC(=O)[C@@]12C[C@@H]1[C@@H](n1ccc3c(NC)nc(C#Cc4ccc(Cl)s4)nc31)[C@H](O)[C@@H]2O | enzyme activity, inhibitor | human liver microsomes | 10 min, pH 7.4, with: mephenytoin substrate | 13.9 µM
COc1ccc(Cc2nc(NC(=O)C34CC5CC(CC(C5)C3)C4)n(C)c2Cc2ccc(OC)c(OC)c2)cc1 | – | – | – | 3.35 ± 0.54 µM
